Measurements collected from several papers.
Each line is one published result; not all experiments were run side by side.
Target: Ephrin type-B receptor 2 (EPHB2, Homo sapiens, UniProt P29323)
Residues used in one study (P29323 19-1055): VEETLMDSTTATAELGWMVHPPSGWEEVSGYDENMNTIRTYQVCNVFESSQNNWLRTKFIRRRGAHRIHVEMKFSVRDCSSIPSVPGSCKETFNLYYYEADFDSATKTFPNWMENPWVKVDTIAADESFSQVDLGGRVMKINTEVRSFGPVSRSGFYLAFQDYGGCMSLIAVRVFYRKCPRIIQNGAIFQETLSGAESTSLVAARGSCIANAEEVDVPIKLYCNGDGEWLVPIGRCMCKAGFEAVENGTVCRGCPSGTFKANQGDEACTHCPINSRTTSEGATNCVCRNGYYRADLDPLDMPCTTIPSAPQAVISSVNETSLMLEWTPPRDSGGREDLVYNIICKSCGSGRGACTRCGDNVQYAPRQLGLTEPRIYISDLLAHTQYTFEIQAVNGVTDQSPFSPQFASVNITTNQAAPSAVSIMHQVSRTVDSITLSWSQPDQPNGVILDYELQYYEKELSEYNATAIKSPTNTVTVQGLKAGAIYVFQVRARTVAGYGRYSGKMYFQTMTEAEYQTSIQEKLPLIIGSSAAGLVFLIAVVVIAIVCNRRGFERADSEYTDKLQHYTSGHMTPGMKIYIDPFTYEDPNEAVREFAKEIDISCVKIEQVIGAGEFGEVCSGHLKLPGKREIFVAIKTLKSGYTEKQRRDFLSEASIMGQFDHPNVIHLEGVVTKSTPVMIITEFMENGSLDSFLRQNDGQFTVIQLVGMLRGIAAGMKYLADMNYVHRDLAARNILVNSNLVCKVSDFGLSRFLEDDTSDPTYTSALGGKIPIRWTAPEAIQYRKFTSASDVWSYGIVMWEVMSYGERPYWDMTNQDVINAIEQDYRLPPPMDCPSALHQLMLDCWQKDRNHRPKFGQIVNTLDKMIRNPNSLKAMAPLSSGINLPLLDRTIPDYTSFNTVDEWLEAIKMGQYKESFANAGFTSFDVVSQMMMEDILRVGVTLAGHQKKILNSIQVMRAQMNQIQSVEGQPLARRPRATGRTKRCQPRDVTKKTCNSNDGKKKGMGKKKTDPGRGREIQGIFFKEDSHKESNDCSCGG

| SMILES | assay | conditions | scale | quantity | result |
| --- | --- | --- | --- | --- | --- |
| CC(C)=CC1OC(C)(C)C2C=C3C(=O)C(Cl)=CC(O)C3C3C(O)C4OC4C(=O)C132 (stereo not drawn) | cell-free assay, competition with immobilised ligand | 10 µM | – | remaining binding | 92% |
| NC(=O)[C@@H](O)C[C@H]1CCc2sc3ncnc(O[C@H]4CC[C@H](N5CCOCC5)CC4)c3c21 | enzyme activity, inhibitor | 10 µM | – | inhibition | 17% |
| CCn1cc(C(=O)O)c(=O)c2c(N)c(F)c(NC3CCCCC3)cc21 | kinase activity | 0.1 µM, together with: ATP at Km | – | inhibition | 1.5% |
| C=CC(=O)Nc1cccc(-c2cnc3[nH]cc(C(=O)NC(C)(C)C)c3n2)c1 | enzyme activity, inhibitor | 0.1 µM | – | inhibition | -3% |
| O=C(Cc1ccc(OCc2ccccc2)cc1)NC1(C(=O)O)CCN(C(=O)c2ccc(-c3cccc(Cl)c3)cc2)CC1 | enzyme activity, inhibitor | 10 µM | – | activity vs control | 89% |
| Nc1ncc2c(n1)-c1c([nH]c3ccc(C4=CCOCC4)cc13)CCC2 | binding, competition with immobilised ligand | 1 µM | – | remaining binding | 100% |
| Cc1cnc2nc1Nc1cccc(c1)COC/C=C/COCc1cc(ccc1OCCN1CCOCC1)N2 | binding | 0.1 µM | – | remaining binding | 100% |
| C[C@H]1CN(C(=O)c2cn(-c3ccnc(N)n3)c3cc(C#CC4(O)CCCCC4)ccc23)CCN1 | enzyme activity, inhibitor, FRET | 1 µM | – | inhibition | -1% |
| O=c1c(-c2ccc(Cl)c(CN3CCOCC3)c2)coc2cc(O)ccc12 | enzyme activity, inhibitor | 1 µM | – | remaining activity | 99% |
| CNC(=O)C1CCN(c2cc(C)c(F)cc2NC(=O)c2ccc(-c3cc(O)ccc3C)c(C)c2)CC1 | binding, competition with immobilised ligand | 1 µM | – | remaining binding | 0.2% |
| CNC(=O)C[C@H](Cc1ccc(C#N)cc1)NC(=O)c1cc(-c2ccc(CN[C@H](C)c3ccc(C)cc3)o2)ccc1Cl | enzyme activity, inhibitor | 1 µM | – | activity vs control | 108% |
| O=C=[N][Ru-4]123([n]4c5ccc(O)cc5c5c6c(c7cc(F)c[n+]1c7c54)C(=O)NC6=O)[S+]1CC[S+]2CC[S+]3CC1 (stereo not drawn) | enzyme activity | 100 nM, human enzyme, together with: 10 µM ATP | baseline: untreated | remaining activity | 116% |
| CCN1CCN(Cc2ccc(C(=O)Nc3ccc(C)c(NCc4cnc5[nH]ccc5c4OC)c3)cc2C(F)(F)F)CC1 | binding, competition with immobilised ligand | 1 µM | – | remaining binding | 5.3% |
| Cc1cccc(O[C@H]2CCC[C@@H](C(C)CNCc3ccncc3)C2)c1 (relative stereo) | kinase activity, kinome panel screening | 1 µM | – | inhibition | -6% |
| C=CC(=O)N1CCCC(n2c(=O)c3ncccc3n(Cc3ccc(Oc4ccccc4)cc3)c2=O)C1 (stereo not drawn) | cell-free assay, competition with immobilised ligand | 1 µM | – | remaining binding | 100% |

Some of these lines once more:
| SMILES | assay | conditions | scale | quantity | result |
| --- | --- | --- | --- | --- | --- |
| C[C@H]1CN(C(=O)c2cn(-c3ccnc(N)n3)c3cc(C#CC4(O)CCCCC4)ccc23)CCN1 | enzyme activity, inhibitor, FRET | 1 µM | – | inhibition | -1% |
